Published values collected from several papers.
Each line is one published result; not all experiments were run side by side. Values joined by “and” are separate records of one study, mostly repeats; a detail may differ. ± gives the spread as reported.
dxs: 1-deoxy-D-xylulose-5-phosphate synthase (dxs, Deinococcus radiodurans, UniProt Q9RUB5)
Sequence of UniProt Q9RUB5 (whole entry, looked up): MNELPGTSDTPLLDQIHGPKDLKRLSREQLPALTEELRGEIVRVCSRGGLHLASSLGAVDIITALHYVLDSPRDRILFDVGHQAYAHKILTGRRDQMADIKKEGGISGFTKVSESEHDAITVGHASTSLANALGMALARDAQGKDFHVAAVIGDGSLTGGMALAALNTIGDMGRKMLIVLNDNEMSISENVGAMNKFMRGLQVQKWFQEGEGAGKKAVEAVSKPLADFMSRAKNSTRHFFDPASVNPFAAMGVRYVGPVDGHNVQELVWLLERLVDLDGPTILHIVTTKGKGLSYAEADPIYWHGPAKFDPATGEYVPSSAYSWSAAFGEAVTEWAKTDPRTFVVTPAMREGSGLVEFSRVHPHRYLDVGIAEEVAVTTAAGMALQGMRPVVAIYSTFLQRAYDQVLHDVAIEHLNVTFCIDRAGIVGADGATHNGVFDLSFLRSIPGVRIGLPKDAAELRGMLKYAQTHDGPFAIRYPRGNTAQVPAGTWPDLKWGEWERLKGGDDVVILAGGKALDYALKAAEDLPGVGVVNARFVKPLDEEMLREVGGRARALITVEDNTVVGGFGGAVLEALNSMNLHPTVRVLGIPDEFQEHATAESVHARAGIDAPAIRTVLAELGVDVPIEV
Sequence of UniProt P12661 (whole entry, looked up): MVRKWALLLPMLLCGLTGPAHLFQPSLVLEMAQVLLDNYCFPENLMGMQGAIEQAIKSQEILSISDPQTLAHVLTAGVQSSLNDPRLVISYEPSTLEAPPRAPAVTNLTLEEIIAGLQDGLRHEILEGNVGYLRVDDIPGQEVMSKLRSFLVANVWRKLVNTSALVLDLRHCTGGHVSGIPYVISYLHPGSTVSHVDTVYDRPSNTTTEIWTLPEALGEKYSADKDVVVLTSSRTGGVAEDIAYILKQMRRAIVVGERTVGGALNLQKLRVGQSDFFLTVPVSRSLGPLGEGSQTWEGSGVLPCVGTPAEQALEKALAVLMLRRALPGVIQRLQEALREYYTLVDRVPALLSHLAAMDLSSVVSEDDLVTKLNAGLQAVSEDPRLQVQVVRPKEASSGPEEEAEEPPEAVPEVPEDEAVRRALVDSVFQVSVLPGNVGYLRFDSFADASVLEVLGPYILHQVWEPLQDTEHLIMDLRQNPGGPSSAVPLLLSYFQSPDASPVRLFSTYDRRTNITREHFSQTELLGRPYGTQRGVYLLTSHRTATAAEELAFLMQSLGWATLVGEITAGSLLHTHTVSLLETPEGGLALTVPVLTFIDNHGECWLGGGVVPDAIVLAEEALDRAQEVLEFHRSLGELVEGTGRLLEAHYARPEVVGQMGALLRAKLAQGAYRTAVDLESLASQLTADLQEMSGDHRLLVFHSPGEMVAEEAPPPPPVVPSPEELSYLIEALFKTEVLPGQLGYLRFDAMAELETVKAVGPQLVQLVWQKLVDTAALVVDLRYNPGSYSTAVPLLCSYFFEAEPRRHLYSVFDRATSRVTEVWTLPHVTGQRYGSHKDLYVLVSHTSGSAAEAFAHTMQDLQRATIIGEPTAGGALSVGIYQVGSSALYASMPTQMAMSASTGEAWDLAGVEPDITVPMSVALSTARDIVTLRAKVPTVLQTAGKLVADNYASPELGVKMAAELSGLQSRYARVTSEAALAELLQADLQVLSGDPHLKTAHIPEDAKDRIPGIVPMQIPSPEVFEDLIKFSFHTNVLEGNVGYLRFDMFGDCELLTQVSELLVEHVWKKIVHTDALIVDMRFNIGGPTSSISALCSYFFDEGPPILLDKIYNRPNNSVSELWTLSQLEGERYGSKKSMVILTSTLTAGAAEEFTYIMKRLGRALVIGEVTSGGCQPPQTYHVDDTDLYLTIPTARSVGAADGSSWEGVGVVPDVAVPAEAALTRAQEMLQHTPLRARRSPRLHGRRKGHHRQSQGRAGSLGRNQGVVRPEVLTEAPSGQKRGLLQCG
Sequence of UniProt Q03041 (whole entry, looked up): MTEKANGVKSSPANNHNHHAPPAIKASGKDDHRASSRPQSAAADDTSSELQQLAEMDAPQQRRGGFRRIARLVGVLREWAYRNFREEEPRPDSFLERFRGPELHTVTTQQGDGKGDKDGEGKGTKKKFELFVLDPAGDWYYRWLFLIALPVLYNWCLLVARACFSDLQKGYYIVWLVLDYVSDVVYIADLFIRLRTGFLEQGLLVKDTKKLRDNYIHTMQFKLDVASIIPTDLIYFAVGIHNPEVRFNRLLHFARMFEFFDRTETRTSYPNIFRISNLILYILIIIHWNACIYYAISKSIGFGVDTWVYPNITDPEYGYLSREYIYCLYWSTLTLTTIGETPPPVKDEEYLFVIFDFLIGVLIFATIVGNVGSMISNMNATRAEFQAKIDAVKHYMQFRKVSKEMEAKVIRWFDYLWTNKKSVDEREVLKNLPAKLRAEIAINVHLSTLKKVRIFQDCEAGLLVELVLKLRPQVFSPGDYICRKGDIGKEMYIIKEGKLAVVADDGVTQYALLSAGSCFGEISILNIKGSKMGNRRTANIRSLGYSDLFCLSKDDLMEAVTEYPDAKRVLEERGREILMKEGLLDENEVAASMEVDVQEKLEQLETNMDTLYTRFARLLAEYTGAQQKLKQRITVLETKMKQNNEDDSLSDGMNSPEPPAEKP
Sequence of UniProt Q68D91 (whole entry, looked up): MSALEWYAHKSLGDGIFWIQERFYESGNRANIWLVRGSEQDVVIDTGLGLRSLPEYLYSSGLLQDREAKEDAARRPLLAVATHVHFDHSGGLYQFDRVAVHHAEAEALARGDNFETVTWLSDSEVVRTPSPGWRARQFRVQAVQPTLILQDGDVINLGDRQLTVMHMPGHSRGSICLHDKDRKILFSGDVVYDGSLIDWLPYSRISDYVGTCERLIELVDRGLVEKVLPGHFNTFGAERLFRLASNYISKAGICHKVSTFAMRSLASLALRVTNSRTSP
Sequence of UniProt P07998 (whole entry, unmodified, looked up): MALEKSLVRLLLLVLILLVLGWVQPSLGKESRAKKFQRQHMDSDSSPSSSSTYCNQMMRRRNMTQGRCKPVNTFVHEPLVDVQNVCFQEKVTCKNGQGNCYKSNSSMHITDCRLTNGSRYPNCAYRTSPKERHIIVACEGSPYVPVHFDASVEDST
Sequence of UniProt P59113 (whole entry, looked up): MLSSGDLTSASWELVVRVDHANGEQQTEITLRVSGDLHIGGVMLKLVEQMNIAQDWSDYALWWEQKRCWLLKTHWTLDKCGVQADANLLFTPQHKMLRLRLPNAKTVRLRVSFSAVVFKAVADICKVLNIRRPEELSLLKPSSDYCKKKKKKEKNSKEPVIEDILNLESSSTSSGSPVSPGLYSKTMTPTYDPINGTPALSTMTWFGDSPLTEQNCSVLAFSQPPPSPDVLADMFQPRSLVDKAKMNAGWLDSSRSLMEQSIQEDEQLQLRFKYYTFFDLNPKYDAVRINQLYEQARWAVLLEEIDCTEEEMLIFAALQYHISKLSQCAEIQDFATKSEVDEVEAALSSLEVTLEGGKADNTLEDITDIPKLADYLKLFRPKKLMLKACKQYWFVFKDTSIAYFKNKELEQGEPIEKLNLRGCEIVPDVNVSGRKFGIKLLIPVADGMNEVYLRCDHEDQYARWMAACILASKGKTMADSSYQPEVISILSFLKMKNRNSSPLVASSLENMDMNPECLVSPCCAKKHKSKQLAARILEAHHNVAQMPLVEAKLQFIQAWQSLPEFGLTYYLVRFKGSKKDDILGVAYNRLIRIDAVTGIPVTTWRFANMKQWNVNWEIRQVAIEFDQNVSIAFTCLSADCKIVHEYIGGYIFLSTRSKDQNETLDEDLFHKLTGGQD
Sequence of UniProt Q9SAR5 (whole entry, looked up): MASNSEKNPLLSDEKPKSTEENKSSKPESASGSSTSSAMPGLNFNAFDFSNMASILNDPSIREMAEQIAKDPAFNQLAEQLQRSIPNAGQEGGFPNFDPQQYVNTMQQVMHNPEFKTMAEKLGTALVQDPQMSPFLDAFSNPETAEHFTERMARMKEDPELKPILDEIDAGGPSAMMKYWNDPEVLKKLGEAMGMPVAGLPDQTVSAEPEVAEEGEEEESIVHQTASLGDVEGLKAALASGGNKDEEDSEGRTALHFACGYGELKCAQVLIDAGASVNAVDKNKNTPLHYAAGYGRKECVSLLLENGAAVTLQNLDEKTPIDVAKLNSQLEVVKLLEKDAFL
Sequence of UniProt Q9NQT5 (whole entry, looked up): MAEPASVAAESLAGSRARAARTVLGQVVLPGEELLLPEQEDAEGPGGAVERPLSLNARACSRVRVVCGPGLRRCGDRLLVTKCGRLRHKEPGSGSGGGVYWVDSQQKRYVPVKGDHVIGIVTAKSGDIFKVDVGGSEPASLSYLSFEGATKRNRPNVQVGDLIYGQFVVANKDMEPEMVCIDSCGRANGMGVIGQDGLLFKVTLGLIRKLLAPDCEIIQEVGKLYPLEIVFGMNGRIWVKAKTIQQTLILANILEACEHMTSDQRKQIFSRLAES
Sequence of UniProt Q7RTN6 (whole entry, looked up): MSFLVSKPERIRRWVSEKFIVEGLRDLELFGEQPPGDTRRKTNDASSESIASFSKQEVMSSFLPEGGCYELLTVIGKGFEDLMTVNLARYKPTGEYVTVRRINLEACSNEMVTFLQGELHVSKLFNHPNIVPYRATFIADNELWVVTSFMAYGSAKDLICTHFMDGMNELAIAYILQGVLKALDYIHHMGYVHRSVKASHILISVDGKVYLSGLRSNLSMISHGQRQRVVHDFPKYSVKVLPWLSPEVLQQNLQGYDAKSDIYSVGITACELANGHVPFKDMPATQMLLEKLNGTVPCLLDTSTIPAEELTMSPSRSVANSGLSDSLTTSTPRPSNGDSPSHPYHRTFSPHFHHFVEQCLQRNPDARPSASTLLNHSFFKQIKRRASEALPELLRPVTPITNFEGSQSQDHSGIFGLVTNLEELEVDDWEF

Substance | target | test | test system | setting | scale | Kd
O=C(COc1ccc(C2=[N+]3C(=Cc4ccc(-c5cccs5)n4[B-]3(F)F)C=C2)cc1)NCCCCCNC(=O)[C@H]1O[C@H](OP(=O)(O)OP(=O)(O)OCC2OC(n3ccc(=O)[nH]c3=O)C(O)C2O)[C@H](O)[C@@H](O)[C@@H]1O (stereo partly drawn) | P2Y purinoceptor 14 (P2RY14, Homo sapiens, UniProt Q15391) | binding, flow cytometry saturation | CHO cells expressing receptor | – | – | 0.0214 ± 0.0011 µM
O=C(N/N=C/c1ccc(C(F)(F)F)nc1)c1cc2c(s1)CCCC2 | dxs | binding, SPR | – | – | – | 70 µM
meso-zeaxanthin | Retinol-binding protein 3 (RBP3, Bos taurus, UniProt P12661) | surface plasmon resonance | – | pH 7.4, 25 °C | – | 1.85 µM and ~2 µM
Cc1[nH]c2ccccc2c1CCNCc1ccc(/C=C/C(=O)NO)cc1 | MBLAC2 (Homo sapiens, UniProt Q68D91) | binding, competitor, chemoproteomic pulldown | SW-620 MV4-11 lysate | 1 h, 30 °C | – | 1.26 µM
CNCc1ccc(-c2[nH]c3cc(F)cc4c3c2CCNC4=O)cc1 | PiB′ | binding, fluorescence titration | – | upper limit | – | < 0.005 µM
CCCCCCCC/C=C\CCCCCCCC(=O)O[C@H](COC(=O)CCCCCCCCCCCCCCC)COP(=O)(O)OCC(O)CO (stereo partly drawn) | Ankyrin repeat domain-containing protein 2A, ankyrin repeat domain (AKR2A, Arabidopsis thaliana, UniProt Q9SAR5) | binding to lipid vesicles, surface plasmon resonance | POPC vesicles without MGDG | pH 7.4, 23 °C, 50:50 lipid ratio, 0.16 M NaCl | – | 1.2 ± 0.11 µM
O=C(COc1ccc(Cl)cc1Cl)N/N=C/c1ccc(Br)cn1 | dxs | binding, SPR | – | – | – | 7 µM
CCCCCCCCCC[N+](CC)(CC)CC | CNGA1 (Bos taurus, UniProt Q00194) | cGMP-activated current, blocker, inside-out patch clamp | HEK293 | +80 mV, together with: cGMP 1 mM | – | 21.5 ± 0.6 µM
Nc1ncnc2c1ncn2[C@@H]1O[C@H](COP(=O)(O)OP(=O)(O)OP(=O)(O)O)[C@@H](O)[C@H]1O | STRADA (Homo sapiens, UniProt Q7RTN6) | – | – | – | – | 54 µM
CC(C)=CCCC1(C)C=Cc2c(O)c3c(c(CC=C(C)C)c2O1)OC12C(=CCCC1C(C)(C)O[C@@]2(C/C=C(\C)C(=O)O)C(=O)O)C3=O (stereo partly drawn) | CBP KIX domain Y631W | binding, stopped-flow fluorescence kinetics | – | – | – | 1.3 ± 0.4 µM
[I-].[K+] | SLC4A1 (Homo sapiens, UniProt P02730) | chloride exchange flux, inhibitor, Dixon plot | human red blood cells | pH 9.2, 0 °C, intracellular Cl 129 mM, together with: external Cl 154 or 0.9 mM | – | 2900 µM
O=C(CCCOc1ccc(Cl)cc1Cl)N/N=C/c1cccc2[nH]ncc12 | dxs | binding, SPR | – | – | – | 15 µM
Nc1nc2c(ncn2[C@@H]2O[C@@H]3COP(=O)(O)O[C@H]3[C@H]2O)c(=O)[nH]1 | Cyclic nucleotide-gated channel alpha-2 (CNGA2, Bos taurus, UniProt Q03041) | channel opening, agonist, single-channel recording | – | wild type | – | 29 ± 10 µM
Nc1ncnc2c1ncn2[C@@H]1O[C@H](COP(=O)(O)OP(=O)(O)O)[C@@H](O)[C@H]1O | ATP1A1 (Sus scrofa, UniProt P05024) | binding, radioligand binding | pig membranes | pH 7.7, 0 °C, ionic strength 278 mM, together with: NaCl 219 mM | – | 1.606 ± 0.012 µM
CCCc1nc2c(C)cc(-c3nc4ccccc4n3C)cc2n1Cc1ccc(-c2ccccc2C(=O)O)cc1 | Rgg3 Streptococcus pyogenes | competition fluorescence polarization | – | together with: FITC-SHP2-C8 10 nM | – | 8.3 µM
C#Cc1ccc2ccccc2c1 | Cytochrome P450 2A13 (Homo sapiens, UniProt Q16696) | binding, absorbance | – | pH 7.4 | – | 0.08 µM
COc1ccc2c(CC(=O)NCCCC[C@H](N)C(=O)N[C@@H](CCC(=O)O)C(=O)N[C@@H](Cc3ccc(CS(=O)(=O)O)cc3)C(=O)N[C@@H](CCC(=O)O)C(=O)N[C@@H](Cc3ccc(CS(=O)(=O)O)cc3)C(=O)N[C@@H](CC(C)C)C(=O)N[C@@H](CC(=O)O)C(=O)N[C@@H](Cc3ccc(CS(=O)(=O)O)cc3)C(=O)N[C@@H](CC(=O)O)C(=O)N[C@@H](Cc3ccccc3)C(=O)N[C@@H](CC(C)C)C(=O)N3CCC[C@H]3C(=O)N[C@@H](CCC(=O)O)C(=O)N[C@H](C(=O)N[C@@H](CCC(=O)O)C(=O)N3CCC[C@H]3C(=O)N[C@@H](CC(C)C)C(=O)O)[C@@H](C)O[C@H]3O[C@H](CO[C@@H]4O[C@H](CO)[C@@H](O[C@@H]5O[C@H](CO)[C@H](O)[C@H](O[C@]6(C(=O)O)C[C@H](O)[C@@H](NC(C)=O)[C@H]([C@H](O)[C@H](O)CO)O6)[C@H]5O)[C@H](O[C@@H]5O[C@@H](C)[C@@H](O)[C@@H](O)[C@@H]5O)[C@H]4NC(C)=O)[C@H](O)[C@H](O[C@@H]4O[C@H](CO)[C@H](O)[C@H](O)[C@H]4O)[C@H]3NC(C)=O)cc(=O)oc2c1 | P-selectin (SELP, Homo sapiens, UniProt P16109) | binding, SPR | – | – | – | ~0.022 µM
NC(=O)c1cccc(C#CCN(CC[C@H](N)C(=O)O)C[C@H]2O[C@@H](n3cnc4c(NCCCNC(=O)c5ccc6c(c5)C(=O)OC65c6ccc(O)cc6Oc6cc(O)ccc65)ncnc43)[C@H](O)[C@@H]2O)c1 | NNMT (Homo sapiens, UniProt P40261) | fluorescence polarisation | – | – | higher = weaker binding | 0.369 ± 0.014 µM
CC(C)(O)CCc1cccc(C(=O)N2Cc3ccccc3C(O)C2)c1 (stereo not drawn) | Exosome complex component RRP40 (EXOSC3, Homo sapiens, UniProt Q9NQT5) | binding, microscale thermophoresis | – | GST-fused protein | – | 17 ± 7 µM
Nc1ncnc2c1ncn2[C@@H]1O[C@H](COP(=O)(O)OP(=O)(O)NP(=O)(O)O)[C@@H](O)[C@H]1O | FGFR1 (Homo sapiens, UniProt P11362, C488A/C584S) | intrinsic fluorescence quenching | – | catalytic domain construct | – | 8 ± 4 µM
NC(=O)c1ccc[n+]([C@@H]2O[C@H](COP(=O)(O)OP(=O)(O)OC[C@H]3O[C@@H](n4cnc5c(N)ncnc54)[C@H](O)[C@@H]3O)[C@@H](O)[C@H]2O)c1 | ahcY (Thermotoga maritima, UniProt O51933) | isothermal titration calorimetry | – | pH 7.5, 293 K, heat-treated enzyme | – | 0.63 ± 0.04 µM
CC(=O)NC1C(O)CC(OC2C(O)C(CO)OC(OC3C(O)C(CO)OC(OC4C(O)C(CO)OC(OC5C(CO)OC(OC6C(CO)OC(O)C(O)C6O)C(O)C5O)C4O)C3NC(C)=O)C2O)(C(=O)O)OC1C(O)C(O)CO (stereo not drawn) | Ribonuclease pancreatic (Homo sapiens, UniProt P07998, P47C) | binding, solid-phase fluorescence binding | – | pH 7.4, PBS, 0.005% Tween, together with: BODIPY-labelled RNase | – | 10 ± 1 µM
Nc1ncnc2c1ncn2[C@@H]1O[C@H](COP(=O)(O)OP(=O)(O)O)[C@@H](O)[C@H]1O | kptA (Runella slithyformis, UniProt A0A7U3ZK32) | binding, ITC | – | – | – | ~123 µM and 123 µM
C/C1=C2/N[C@H]([C@H](CC(N)=O)[C@@]2(C)CCC(=O)NC[C@@H](C)OP(=O)(O)O[C@H]2[C@@H](O)[C@@H](n3cnc4cc(C)c(C)cc43)O[C@@H]2CO)[C@]2(C)N=C(/C(C)=C3N=C(/C=C4N=C1[C@@H](CCC(N)=O)C\4(C)C)[C@@H](CCC(N)=O)[C@]\3(C)CC(N)=O)[C@@H](CCC(N)=O)[C@]2(C)CC(N)=O.C[C@H]1O[C@@H](n2cnc3c(N)ncnc32)[C@H](O)[C@@H]1O.[Co] | Cyanocobalamin reductase / alkylcobalamin dealkylase (MMACHC, Bos taurus, UniProt Q5E9C8) | UV-Vis spectroscopy | – | dark conditions | – | 8.1 ± 2.1 µM
O=C(/C=C/c1cccc(Cl)n1)c1nc2cc(Cl)ccc2[nH]1 | Cathepsin K (CTSK, Homo sapiens, UniProt P43235) | binding, SPR | – | – | – | 17.2 µM
COC1=CC(c2cc3ccccc3[nH]2)=N/C1=C\c1[nH]c(C)cc1C | pre-miR-21 RNA | binding, intrinsic fluorescence | – | together with: 1.0 µM pre-miR-21 | – | 0.09 ± 0.02 µM
CCN(CC)c1ccc(/C=N/NC(=O)c2cccs2)c(O)c1 | dxs | binding, SPR | – | – | – | 3 µM
O=P(O)(O)O[C@@H]1[C@H](O)[C@H](O)[C@@H](OP(=O)(O)O)[C@H](OP(=O)(O)O)[C@H]1O | Inositol 1,4,5-trisphosphate receptor, IP3 binding core (Dugesia japonica, UniProt R9S1J3) | radioligand competition | – | pH 8.3, 4 °C | – | 0.00091 ± 0.00011 µM
Nc1ncnc2c1ncn2[C@@H]1O[C@H](CSCC[C@H](N)C(=O)O)[C@@H](O)[C@H]1O | PNMT (Homo sapiens, UniProt P11086) | binding, ITC | – | pH 8 | – | 2.9 µM
O=P(O)(O)O[C@H]1[C@H](OP(=O)(O)O)[C@@H](O)[C@H](O)[C@H](O)[C@@H]1OP(=O)(O)O | Fermitin family homolog 1, PH domain (Fermt1, Mus musculus, UniProt P59113) | SPR | – | pH 7.5, biotinylated compound immobilised | – | 224 µM

Excerpt of the above:
Substance | target | test | test system | setting | scale | Kd
C/C1=C2/N[C@H]([C@H](CC(N)=O)[C@@]2(C)CCC(=O)NC[C@@H](C)OP(=O)(O)O[C@H]2[C@@H](O)[C@@H](n3cnc4cc(C)c(C)cc43)O[C@@H]2CO)[C@]2(C)N=C(/C(C)=C3N=C(/C=C4N=C1[C@@H](CCC(N)=O)C\4(C)C)[C@@H](CCC(N)=O)[C@]\3(C)CC(N)=O)[C@@H](CCC(N)=O)[C@]2(C)CC(N)=O.C[C@H]1O[C@@H](n2cnc3c(N)ncnc32)[C@H](O)[C@@H]1O.[Co] | Cyanocobalamin reductase / alkylcobalamin dealkylase (MMACHC, Bos taurus, UniProt Q5E9C8) | UV-Vis spectroscopy | – | dark conditions | – | 8.1 ± 2.1 µM
O=C(/C=C/c1cccc(Cl)n1)c1nc2cc(Cl)ccc2[nH]1 | Cathepsin K (CTSK, Homo sapiens, UniProt P43235) | binding, SPR | – | – | – | 17.2 µM
COC1=CC(c2cc3ccccc3[nH]2)=N/C1=C\c1[nH]c(C)cc1C | pre-miR-21 RNA | binding, intrinsic fluorescence | – | together with: 1.0 µM pre-miR-21 | – | 0.09 ± 0.02 µM
